Measured values gathered from unrelated publications.
Lines come from different studies, so protocols differ. Several values in a cell are separate wells, animals, samples, runs or records. ± marks the error that the study gave.

With `N=C(N/N=C/c1ccc2ccccc2c1)N/N=C/c1ccc2ccccc2c1` the IC50 was 119 µM (IMR-90; cell growth or viability, crystal violet; 72 h).
The IC50 of `CCN(CC)CCCNC(=O)CSc1c2c(nc3cc(Cl)ccc13)CCCC2` is reported as 43.5 µM (LDR; cell viability, MTS; 4 days).
For `CO[C@@H]1[C@@H](O[C@@H]2O[C@H](C)[C@@H](O[C@H]3C[C@@](C)(O)[C@@H](OC(=O)/C=C/c4ccc(C(F)(F)F)cc4)[C@H](C)O3)[C@H](N(C)C)[C@H]2O)[C@@H](CC=O)C[C@@H](C)[C@@H](O[C@H]2CC[C@H](N(C)C)[C@@H](C)O2)/C=C/C=C/C[C@@H](C)OC(=O)C[C@H]1O`, the IC50 was 0.96 µM (HGC-27; cell growth or viability, CCK-8; 72 h).
With `COc1cc(NC(=O)c2ccc(F)cc2)ccc1C(=O)Nc1ccc(Cl)c(-c2nc3ccccc3[nH]2)c1` the IC50 was 0.34 ± 0.07 µM (NIH3T3-Gli-Luc; Hedgehog signalling, Gli-luciferase reporter; with: Shh-conditioned medium).
`N=C(N)NCCC[C@H](N)C(=O)N1CCC[C@H]1C(=O)N[C@@H](CC(=O)N[C@@H](Cc1ccc(O)cc1)C(=O)O)c1cccc2ccccc12` gave an IC50 of greater than 50 µM (BT-474 (HER2-overexpressing)).
`O=C(Cc1ccc2ccccc2c1)N[C@H](Cc1ccccc1)C(=O)N[C@H](Cc1ccc(O)cc1)C(=O)N[C@H](Cc1ccccc1)C(=O)N[C@H](Cc1ccc(OP(=O)(O)O)cc1)C(=O)O` has an IC50 of 310 µg/mL (HS5; cell growth or viability, MTT).
`C[C@]12CC/C(=N\OCCN3CCOCC3)C=C1CCC1C2CC[C@]2(C)/C(=C/c3ccccn3)CCC12` (some centres unmarked) has an IC50 of 11.4 µM (G-361; cell growth or viability, resazurin; 72 h).
For `O=C(CSc1cccc[n+]1[O-])c1ccccc1Br`, the IC50 was 2.2 µM (LDR; cell viability, MTS; 4 days).
The IC50 of `COc1cccc2c1C(=O)c1c(O)c3c(c(O)c1C2=O)CC(O)(C(=O)CO)CC3OC1CC(NC(=O)C[C@H](N)C(=O)O)C(O)C(C)O1` (some centres unmarked) is reported as greater than 50 µg/mL (NCI-H1299; cell growth or viability, MTT; 48 h).
With `Cn1cc(-c2cc(N3CCCS3(=O)=O)ccc2N[C@H]2CC[C@H](C)CC2)c2cc[nH]c2c1=O` the IC50 was 0.00012 ± 0.0001 µM (Light II cells; GLI reporter gene, inhibitor; Hedgehog pathway).
`N=C(N/N=C/c1ccccn1)N/N=C/c1ccccn1` gave an IC50 of 95 µM (IMR-90; cell growth or viability, crystal violet; 72 h).
The IC50 of `Cc1ncsc1-c1ccc(C(CO)NC(=O)C2CC(O)CN2C(=O)C(C(C)C)n2cc(-c3ccc(COc4c(-c5c(C)c(F)cc6[nH]ncc56)c(C5CC5)cc5c(N6CC7CC6CN7)nc(OC6CCOCC6)nc45)cc3)nn2)cc1` (centres unmarked) is reported as greater than 10 µM (COLO 320 (KRAS wild type); cell growth, CellTiter-Glo; 144 h, 3D culture).
`CO[C@@H]1[C@@H](O[C@@H]2O[C@H](C)[C@@H](O[C@H]3C[C@@](C)(O)[C@@H](OC(=O)NC4CCCCC4)[C@H](C)O3)[C@H](N(C)C)[C@H]2O)[C@@H](CC=O)C[C@@H](C)[C@@H](O[C@H]2CC[C@H](N(C)C)[C@@H](C)O2)/C=C/C=C/C[C@@H](C)OC(=O)C[C@H]1O` gave an IC50 of greater than 50 µM (HGC-27; cell growth or viability, CCK-8; 72 h).
`COC(=O)[C@H]1[C@H]2C[C@H]3O[C@@]4(CCN3C[C@H]2C[C@@H](OC(=O)c2cc(OC)c(OC)c(OC)c2)[C@@H]1OC)C(=O)Nc1cc(OC)c(-c2ccccc2)cc14` gave an IC50 of 61.9 µM (CAPAN-1; cell growth or viability, crystal violet; 72 h).
The IC50 of `Cc1cc(CN2CCN(c3c(Br)cnc4[nH]c(-c5ccc(N6CCN(C)CC6)cc5)nc34)CC2)no1` is reported as 0.08 µM (MOLM-13 resistant cells; 72 h).
With `Cl.[Cl][Ru-]1[S+]=C(N2CCCC2)N[N+]1=Cc1ccc(N(c2ccc(-c3ccsc3)cc2)c2ccc(-c3ccsc3)cc2)cc1.c1ccccc1` the IC50 was greater than 100 µM (IMR-90; cell viability, MTT; 24 h).
`Cc1ccc(C(C)C)cc1.Cc1ncc(CO)c(C=NNC2=Nc3ccccc3-c3[nH]c4ccc(Br)cc4c3C2)c1O.[Cl-].[Cl][Os+]` gave an IC50 of 16 µM (LNCaP; cell growth or viability, MTT; 96 h).
The IC50 of `COc1cccc(/C=N/Nc2nc(Nc3ccccc3)nc(-n3nc(C)cc3C)n2)c1O` is reported as 6.6 µM (HCC4017; cell growth or viability, MTS; 96 h).
The IC50 of `CCCC(CCC)C(=O)[O][Pt]([NH2])([NH2])([Cl])([Cl])[O]C(=O)c1ccccc1OC(C)=O` is reported as 0.79 ± 0.06 µM (PSN1 3D spheroids).
The IC50 of `CCCCNC(=O)O[C@H]1[C@H](C)O[C@@H](O[C@H]2[C@H](N(C)C)[C@@H](O)[C@H](O[C@H]3[C@@H](CC=O)C[C@@H](C)[C@@H](O[C@H]4CC[C@H](N(C)C)[C@@H](C)O4)/C=C/C=C/C[C@@H](C)OC(=O)C[C@@H](O)[C@@H]3OC)O[C@@H]2C)C[C@@]1(C)O` is reported as greater than 50 µM (HGC-27; cell growth or viability, CCK-8; 72 h).
With `CC(C)N(C[C@H]1O[C@@H](n2cnc3c(N)ncnc32)[C@H](O)[C@@H]1O)C1CC2CN(Cc3ccc(OC(F)(F)F)cc3)CC2C1` (some centres unmarked) the IC50 was 73.5 ± 6.32 µM (H460 R231Q; cell proliferation, CCK-8; 72 h).
For `C[N+]1(C)CC[NH2+][Pt-2]1([OH])([Cl])([Cl])[O]C(=O)CCC(=O)O`, the IC50 was 8.4 µM (CH1; cell growth or viability, MTT; 96 h).
The IC50 of `CC(C)=CCC1=C([O-])C(=O)c2ccccc2C1=O.CC(C)=CCC1=C([O-])C(=O)c2ccccc2C1=O.[Cu+2].c1ccc(-c2ccccn2)nc1` is reported as 1 ± 0.3 µM (A2780; cell viability, MTT; 48 h).
For `CC1=C/C(=N\N=C(/S)Nc2cccnc2)CC(C)(C)C1`, the IC50 was 2.5 µM (LDR; cell viability, MTS; 4 days).
With `Cn1cc(-c2cc(N3CCCCS3(=O)=O)ccc2N[C@H]2CC[C@@](C)(O)CC2)c2cc[nH]c2c1=O` the IC50 was 0.00147 ± 0.00066 µM (Light II cells; GLI reporter gene, inhibitor; Hedgehog pathway).
`CCC(C(=O)O)C1CCC(C)C(C(C)C(O)C(C)C(=O)C(CC)C2OC3(C=CC(NCc4cn(CCOCCOCCOC)nn4)C4(CCC(C)(C5CCC(O)(CC)C(C)O5)O4)O3)C(C)CC2C)O1` (centres unmarked) has an IC50 of 25.3 ± 2.8 µM (HMLER CD24high/CD44low; cell viability, CellTiter-Blue; 72 h).
`CC(C)c1cccc(C(C)C)c1-n1ccn(-c2c(C(C)C)cccc2C(C)C)c1=[Se].[Cl][Ag]` gave an IC50 of 0.4 µM (A-431; cell growth or viability, MTT; 72 h).
`CC(=O)O[C@@H]1[C@H](OC(C)=O)[C@@H](C)O[C@H]1n1cc(F)c(NC(=O)/C=C/c2ccc(O)c(O)c2)nc1=O` gave an IC50 of 23 µM and 23.2 µM (BxPC-3; cell viability, MTT; 72 h).
For `C[O][Pt-2]([NH3+])([NH3+])([OH])([Cl])[Cl]`, the IC50 was 0.61 µM (CH1; cell growth or viability, MTT; 96 h).
`CCCCCCC[C@@H](CC(=O)O)OC(=O)C[C@@H](CCCCCCC)O[C@@H]1O[C@@H](C)[C@H](O)[C@@H](O)[C@H]1O` has an IC50 of 190 µM (H1299; cytotoxicity, MTS; 72 h).
For `CCC(CC)CNC(=N)NC(=N)NCCCCCCNC(=N)NC(=N)NCC(CC)CC`, the IC50 was 3 µM (NCI-H1299; cell growth or viability; 72 h).
With `CCCCCCCCC=CCCCCCCCC(=O)OCC1OC(n2ccc(N)nc2=O)C(F)(F)C1O` (centres unmarked) the IC50 was 0.0077 ± 0.0028 µM (LOX; cell growth).
`COc1cc2c(cc1/C(C)=N/O)CCC1C(C)(C)c3nc(C)ncc3C[C@]21C` (mixture of isomers) has an IC50 of greater than 100 µM (TM3; cell growth or viability, SRB; 24 h).
`O=C(N/N=C/c1ccccn1)c1cc(-c2ccc(Cl)cc2)nc2ccccc12` gave an IC50 of greater than 50 µM (LDR; cell viability, MTS; 4 days).
For `Cc1ccc(C(C)C)cc1.O=C(N=P(c1ccccc1)(c1ccccc1)c1ccccc1)c1ccccn1.[Cl-].[Cl][Ru+]`, the IC50 was 9.29 µM (HCC1806; cell growth or viability, resazurin).
